Assay results of several laboratories.
Each numbered part is a random draw from the data of one study; scales do not carry over between parts. Changes are numbered by the printed parent chain.

Series 1
Target: Transcription factor Sp1 (SP1, Homo sapiens, UniProt P08047, residues 1-785, full length assumed)
Sequence of UniProt P08047 (whole entry, looked up): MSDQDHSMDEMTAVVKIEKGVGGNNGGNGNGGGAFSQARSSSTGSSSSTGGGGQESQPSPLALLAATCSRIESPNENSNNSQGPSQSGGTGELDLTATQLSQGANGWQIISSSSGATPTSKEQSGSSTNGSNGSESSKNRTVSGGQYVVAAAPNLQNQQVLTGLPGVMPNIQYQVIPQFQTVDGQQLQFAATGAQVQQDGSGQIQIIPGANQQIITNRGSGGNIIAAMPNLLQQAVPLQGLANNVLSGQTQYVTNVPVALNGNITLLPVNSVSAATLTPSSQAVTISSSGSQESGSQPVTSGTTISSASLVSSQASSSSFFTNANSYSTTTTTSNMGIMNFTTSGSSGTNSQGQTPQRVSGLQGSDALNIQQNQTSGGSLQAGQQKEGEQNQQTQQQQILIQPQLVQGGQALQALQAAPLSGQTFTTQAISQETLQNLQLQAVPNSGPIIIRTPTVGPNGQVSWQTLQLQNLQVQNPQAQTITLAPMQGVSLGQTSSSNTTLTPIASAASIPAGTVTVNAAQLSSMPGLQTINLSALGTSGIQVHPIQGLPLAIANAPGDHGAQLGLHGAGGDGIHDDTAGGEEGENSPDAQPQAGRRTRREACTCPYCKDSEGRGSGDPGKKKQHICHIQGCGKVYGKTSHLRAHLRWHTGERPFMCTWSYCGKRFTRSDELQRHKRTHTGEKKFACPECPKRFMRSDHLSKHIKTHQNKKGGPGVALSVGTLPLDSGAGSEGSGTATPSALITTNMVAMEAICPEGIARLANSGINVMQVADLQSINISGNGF
Method: protein-binding microarray
Molecule type: double-stranded DNA, one strand shown
Matrix: in vitro
Concentration: not given
Setting: k-mer, scored over probes, only values ≥0.25
Reading: higher = stronger binding
Quantity: E-score
Sequence = ACGCCCCT; result = 0.479
Sequence = CTCCTCCC; result = 0.413
Sequence = ACCATCCC; result = 0.255
Sequence = AAGTGGGG; result = 0.31
Sequence = GGGGCGGA; result = 0.491
Sequence = AACACCCC; result = 0.355
Sequence = ACCCCAGT; result = 0.269
Sequence = GGGGCATA; result = 0.277

Series 2
Target: Histone acetyltransferase KAT6A, winged helix 1, GST fusion (KAT6A, Homo sapiens, UniProt Q92794, residues 1-85)
Method: protein binding microarray
Molecule type: double-stranded DNA, one strand shown
Matrix: in vitro
Concentration: not given
Setting: 8-mer, flanks averaged, mean of 2 arrays, mostly near background
Reference: not given
Reading: higher = stronger binding
Quantity: E-score
Residues (chain): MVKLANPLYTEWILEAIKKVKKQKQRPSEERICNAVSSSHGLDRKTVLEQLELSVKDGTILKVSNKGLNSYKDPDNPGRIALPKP
Sequence = CTTGCCAC; result = -0.0414
Sequence = AAGCTGCA; result = -0.0027
Sequence = CGATACCG; result = 0.297
Sequence = ATCACCTC; result = -0.0858
Sequence = AGTGAAGA; result = -0.258
Sequence = CACCTGTC; result = -0.0807
Sequence = ATGAAACA; result = -0.164
Sequence = ATTGCCAA; result = -0.245

Series 3
Target: Centromere-binding protein 1, full length, His-tagged (CBF1, Saccharomyces cerevisiae, UniProt P17106, residues 1-351)
Sequence of UniProt P17106 (whole entry, looked up): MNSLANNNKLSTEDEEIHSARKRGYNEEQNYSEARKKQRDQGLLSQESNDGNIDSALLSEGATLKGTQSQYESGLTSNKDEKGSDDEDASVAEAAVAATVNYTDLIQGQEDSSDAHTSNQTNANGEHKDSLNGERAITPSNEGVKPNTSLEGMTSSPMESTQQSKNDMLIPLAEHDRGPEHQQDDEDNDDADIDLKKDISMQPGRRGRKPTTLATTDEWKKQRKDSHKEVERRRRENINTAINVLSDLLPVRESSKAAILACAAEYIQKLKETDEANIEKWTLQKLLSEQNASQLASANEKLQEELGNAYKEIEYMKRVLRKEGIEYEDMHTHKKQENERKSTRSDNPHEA
Method: competition protein-binding microarray
Molecule type: double-stranded DNA, one strand shown
Matrix: in vitro
Concentration: 2 µM
Setting: whole 60-bp probe, lowest competitor level
Added: Pho4 competitor, 0.05 µM
Reading: higher = stronger binding
Quantity: fluorescence intensity
All sequences stand within: … GTCTTGATTCGCTTGACGCTGCTG
Sequence = TGTCCCAATTCCCAGCTCGTGGAACCTGGTGTTTTA; result = 59.2 a.u.
Sequence = CATACCCAACCTTTTCACGTGTCCTAAGATATTTGT; result = 1300 a.u.
Sequence = CCTGCCGAAACGAGTCACGGCGATGAACAAAATAGG; result = 146 a.u.
Sequence = CTTTCCCGATCTTGAGCAGTGGGTGTAGCACATTTG; result = 68.7 a.u.
Sequence = TGACAGTAATCTTTTCACGTGTGGATGGACAGACTC; result = 622 a.u.
Sequence = CTAACGAAGGTTTGTCACAGAACTTACAAGCCAAGT; result = 67.7 a.u.
Sequence = TGCGCAACAACTTGCACGGTGGGTGTATGTCTAGAA; result = 69.4 a.u.
Sequence = GTCTTGTCTCATTGAGGCGTGGGTGTCCCCACTTCA; result = 78 a.u.

Mixed results
Starting sequence: PafA, mature enzyme, eGFP fusion (Elizabethkingia meningoseptica, UniProt Q9KJX5); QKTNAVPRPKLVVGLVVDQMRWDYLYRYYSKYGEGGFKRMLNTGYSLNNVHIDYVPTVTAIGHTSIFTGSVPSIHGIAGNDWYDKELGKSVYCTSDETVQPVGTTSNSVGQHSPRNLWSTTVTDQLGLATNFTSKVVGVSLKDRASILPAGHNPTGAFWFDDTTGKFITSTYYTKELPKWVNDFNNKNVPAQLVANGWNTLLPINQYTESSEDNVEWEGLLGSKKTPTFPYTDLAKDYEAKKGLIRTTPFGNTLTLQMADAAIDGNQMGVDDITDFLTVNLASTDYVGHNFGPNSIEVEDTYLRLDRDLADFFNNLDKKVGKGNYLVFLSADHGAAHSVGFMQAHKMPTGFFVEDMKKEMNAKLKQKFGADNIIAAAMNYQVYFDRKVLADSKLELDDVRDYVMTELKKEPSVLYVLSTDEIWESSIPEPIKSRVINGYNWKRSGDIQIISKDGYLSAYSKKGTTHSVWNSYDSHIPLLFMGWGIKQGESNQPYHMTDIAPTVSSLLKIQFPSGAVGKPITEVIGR
Substitution = I436V; target = vanadate, free oxyanion; test = microfluidic competitive inhibition; system = in vitro, cell-free expressed; conditions = not given, derived from inhibition constants, unchanged parent 676 nM; how to read = lower = stronger binding; quantity = oxyanion analog dissociation constant; result = 828 nM

Some of these lines once more (series 1):
Sequence = ACGCCCCT; result = 0.479
Sequence = CTCCTCCC; result = 0.413
Sequence = ACCATCCC; result = 0.255
Sequence = AAGTGGGG; result = 0.31
